# Experimental data collected from several papers.
# UniProt Q9H0K1, sequence (whole entry, looked up): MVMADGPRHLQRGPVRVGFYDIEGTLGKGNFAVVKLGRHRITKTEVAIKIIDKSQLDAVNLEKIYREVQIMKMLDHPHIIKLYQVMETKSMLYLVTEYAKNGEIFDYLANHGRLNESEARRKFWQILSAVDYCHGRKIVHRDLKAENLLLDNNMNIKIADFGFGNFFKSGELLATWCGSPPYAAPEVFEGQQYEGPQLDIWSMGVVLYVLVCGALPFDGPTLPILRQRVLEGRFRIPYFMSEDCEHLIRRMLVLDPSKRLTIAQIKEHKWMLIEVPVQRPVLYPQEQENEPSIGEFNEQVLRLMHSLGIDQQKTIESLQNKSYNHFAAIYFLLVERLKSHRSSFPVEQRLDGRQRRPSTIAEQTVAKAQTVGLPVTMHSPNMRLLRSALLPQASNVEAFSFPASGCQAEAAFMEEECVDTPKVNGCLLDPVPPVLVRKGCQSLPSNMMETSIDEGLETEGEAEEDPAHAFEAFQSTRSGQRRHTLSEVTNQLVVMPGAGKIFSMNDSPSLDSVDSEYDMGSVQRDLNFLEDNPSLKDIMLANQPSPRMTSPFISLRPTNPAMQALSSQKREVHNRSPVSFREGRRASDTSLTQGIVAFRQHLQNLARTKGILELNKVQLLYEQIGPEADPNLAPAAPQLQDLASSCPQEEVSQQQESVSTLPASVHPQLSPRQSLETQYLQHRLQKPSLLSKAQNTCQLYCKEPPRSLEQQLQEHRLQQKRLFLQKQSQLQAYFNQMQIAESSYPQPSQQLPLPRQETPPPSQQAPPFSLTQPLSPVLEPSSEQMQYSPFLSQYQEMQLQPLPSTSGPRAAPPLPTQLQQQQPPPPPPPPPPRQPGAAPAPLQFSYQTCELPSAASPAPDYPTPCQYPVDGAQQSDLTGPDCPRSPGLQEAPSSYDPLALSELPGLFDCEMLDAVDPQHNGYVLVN
# UniProt Q9UM07, sequence (whole entry, looked up): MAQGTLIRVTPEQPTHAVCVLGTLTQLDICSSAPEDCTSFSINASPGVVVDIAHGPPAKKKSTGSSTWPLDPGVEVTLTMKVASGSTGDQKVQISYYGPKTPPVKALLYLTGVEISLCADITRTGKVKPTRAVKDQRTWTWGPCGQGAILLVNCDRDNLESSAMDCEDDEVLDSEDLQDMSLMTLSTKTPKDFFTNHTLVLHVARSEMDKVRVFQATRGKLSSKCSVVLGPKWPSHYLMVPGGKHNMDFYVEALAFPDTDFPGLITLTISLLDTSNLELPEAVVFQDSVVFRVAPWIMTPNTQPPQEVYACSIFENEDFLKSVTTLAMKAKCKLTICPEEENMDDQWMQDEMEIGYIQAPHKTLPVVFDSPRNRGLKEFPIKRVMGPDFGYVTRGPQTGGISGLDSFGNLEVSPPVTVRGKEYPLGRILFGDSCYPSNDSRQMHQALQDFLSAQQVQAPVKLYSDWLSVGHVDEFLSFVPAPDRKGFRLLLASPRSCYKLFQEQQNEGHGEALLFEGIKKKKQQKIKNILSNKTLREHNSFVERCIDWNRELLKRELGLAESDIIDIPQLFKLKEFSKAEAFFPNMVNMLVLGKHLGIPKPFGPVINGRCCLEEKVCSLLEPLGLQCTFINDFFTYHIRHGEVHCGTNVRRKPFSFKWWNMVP
# UniProt Q13873, sequence (whole entry, looked up): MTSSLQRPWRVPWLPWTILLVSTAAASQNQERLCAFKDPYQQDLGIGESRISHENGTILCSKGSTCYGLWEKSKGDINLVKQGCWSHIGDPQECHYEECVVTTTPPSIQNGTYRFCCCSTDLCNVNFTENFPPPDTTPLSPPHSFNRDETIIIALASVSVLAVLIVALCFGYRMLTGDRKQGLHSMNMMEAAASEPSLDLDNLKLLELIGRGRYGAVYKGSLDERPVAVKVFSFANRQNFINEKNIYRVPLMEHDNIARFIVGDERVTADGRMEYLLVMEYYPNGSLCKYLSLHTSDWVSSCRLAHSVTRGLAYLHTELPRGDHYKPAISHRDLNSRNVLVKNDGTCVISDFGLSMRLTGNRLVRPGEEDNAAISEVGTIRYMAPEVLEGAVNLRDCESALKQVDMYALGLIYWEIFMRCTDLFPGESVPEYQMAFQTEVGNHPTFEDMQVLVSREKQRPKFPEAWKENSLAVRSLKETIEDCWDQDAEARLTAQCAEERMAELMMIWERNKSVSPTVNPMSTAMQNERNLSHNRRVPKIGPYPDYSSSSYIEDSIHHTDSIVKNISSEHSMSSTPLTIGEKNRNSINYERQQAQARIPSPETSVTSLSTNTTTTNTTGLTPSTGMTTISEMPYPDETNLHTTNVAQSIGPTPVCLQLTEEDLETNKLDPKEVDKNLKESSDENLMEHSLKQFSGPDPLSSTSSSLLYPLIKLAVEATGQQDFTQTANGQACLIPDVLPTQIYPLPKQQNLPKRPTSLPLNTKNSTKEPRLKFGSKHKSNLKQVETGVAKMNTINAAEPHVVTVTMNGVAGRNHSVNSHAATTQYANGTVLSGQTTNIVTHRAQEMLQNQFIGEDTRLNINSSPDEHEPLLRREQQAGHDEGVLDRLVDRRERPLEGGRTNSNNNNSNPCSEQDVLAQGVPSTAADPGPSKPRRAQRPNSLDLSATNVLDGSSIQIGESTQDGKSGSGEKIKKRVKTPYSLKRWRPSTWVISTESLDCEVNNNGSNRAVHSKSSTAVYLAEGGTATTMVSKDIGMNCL
# UniProt Q16620, sequence (whole entry, looked up): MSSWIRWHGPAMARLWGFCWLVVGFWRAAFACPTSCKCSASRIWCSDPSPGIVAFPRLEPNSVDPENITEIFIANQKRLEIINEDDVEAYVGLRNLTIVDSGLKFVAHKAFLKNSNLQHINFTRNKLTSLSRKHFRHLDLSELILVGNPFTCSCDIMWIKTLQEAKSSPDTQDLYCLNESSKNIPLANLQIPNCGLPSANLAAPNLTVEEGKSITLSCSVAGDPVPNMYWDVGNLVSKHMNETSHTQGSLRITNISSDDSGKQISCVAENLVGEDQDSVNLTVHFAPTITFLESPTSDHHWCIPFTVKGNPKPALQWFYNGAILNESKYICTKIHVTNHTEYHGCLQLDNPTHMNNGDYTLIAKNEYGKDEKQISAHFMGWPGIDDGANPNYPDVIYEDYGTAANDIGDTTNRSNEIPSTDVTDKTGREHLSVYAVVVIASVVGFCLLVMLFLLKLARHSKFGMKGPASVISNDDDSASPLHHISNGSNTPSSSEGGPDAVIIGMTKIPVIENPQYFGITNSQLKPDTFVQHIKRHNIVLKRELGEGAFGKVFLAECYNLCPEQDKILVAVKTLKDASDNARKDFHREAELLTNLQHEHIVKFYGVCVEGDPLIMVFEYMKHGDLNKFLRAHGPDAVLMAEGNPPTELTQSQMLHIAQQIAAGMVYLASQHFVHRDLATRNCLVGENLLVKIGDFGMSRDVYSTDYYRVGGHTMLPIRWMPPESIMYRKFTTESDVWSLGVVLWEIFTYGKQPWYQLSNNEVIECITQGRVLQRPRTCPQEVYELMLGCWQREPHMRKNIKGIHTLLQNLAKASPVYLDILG
# UniProt P32245, sequence (whole entry, looked up): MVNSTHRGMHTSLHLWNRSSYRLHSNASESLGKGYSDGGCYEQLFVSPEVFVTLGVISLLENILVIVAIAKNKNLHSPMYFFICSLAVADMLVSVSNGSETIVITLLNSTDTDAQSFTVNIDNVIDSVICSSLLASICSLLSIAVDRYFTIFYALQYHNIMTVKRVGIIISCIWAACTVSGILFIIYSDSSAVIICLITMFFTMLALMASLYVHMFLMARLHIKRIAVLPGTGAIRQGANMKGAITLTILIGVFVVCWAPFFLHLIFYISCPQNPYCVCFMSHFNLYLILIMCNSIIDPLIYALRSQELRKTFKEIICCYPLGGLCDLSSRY
# UniProt Q9NYY3, sequence (whole entry, looked up): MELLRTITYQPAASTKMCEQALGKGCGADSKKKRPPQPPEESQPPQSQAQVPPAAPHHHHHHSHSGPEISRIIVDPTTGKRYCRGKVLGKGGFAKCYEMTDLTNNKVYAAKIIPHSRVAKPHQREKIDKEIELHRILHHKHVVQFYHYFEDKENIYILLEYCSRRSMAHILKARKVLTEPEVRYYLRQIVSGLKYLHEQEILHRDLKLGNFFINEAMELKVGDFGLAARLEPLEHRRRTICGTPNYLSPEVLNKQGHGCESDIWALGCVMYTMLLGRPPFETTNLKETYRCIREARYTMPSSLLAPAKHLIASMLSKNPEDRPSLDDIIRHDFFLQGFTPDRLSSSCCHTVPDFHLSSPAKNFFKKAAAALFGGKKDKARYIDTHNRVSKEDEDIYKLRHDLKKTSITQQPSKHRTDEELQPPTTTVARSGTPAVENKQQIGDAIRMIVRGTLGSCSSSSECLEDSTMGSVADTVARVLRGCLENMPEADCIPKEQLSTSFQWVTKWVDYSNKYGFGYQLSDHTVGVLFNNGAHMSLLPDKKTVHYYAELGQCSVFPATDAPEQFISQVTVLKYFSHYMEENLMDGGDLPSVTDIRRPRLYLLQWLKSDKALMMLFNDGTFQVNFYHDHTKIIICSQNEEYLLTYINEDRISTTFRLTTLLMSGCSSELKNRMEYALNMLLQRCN
# UniProt P47901, sequence (whole entry, looked up): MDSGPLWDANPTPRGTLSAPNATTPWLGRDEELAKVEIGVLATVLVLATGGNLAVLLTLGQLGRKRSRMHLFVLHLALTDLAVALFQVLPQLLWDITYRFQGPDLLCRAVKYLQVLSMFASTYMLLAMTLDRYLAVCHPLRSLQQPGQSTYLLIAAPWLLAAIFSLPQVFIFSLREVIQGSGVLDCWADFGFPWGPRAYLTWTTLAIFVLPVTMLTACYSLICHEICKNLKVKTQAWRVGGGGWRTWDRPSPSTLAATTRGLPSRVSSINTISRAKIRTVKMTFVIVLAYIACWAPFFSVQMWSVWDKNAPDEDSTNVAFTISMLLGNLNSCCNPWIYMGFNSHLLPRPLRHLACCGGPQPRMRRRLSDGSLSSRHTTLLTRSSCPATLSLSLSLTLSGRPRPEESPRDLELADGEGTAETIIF
Structure (SMILES),target,read-out,action,technique,tested at,with,inhibition
O=C(O)c1ccccc1/C=N/Nc1nc(-c2ccccc2Cl)cs1,"BDNF/NT-3 growth factors receptor (NTRK2, Homo sapiens, UniProt Q16620)",enzyme activity,inhibitor,,1 µM,,-8.42%
O=C(CN1CN(c2ccccc2)C2(CCN(C(=O)c3cnc4[nH]ncc4c3)CC2)C1=O)NCC(F)(F)F,"Serine/threonine-protein kinase PLK2 (PLK2, Homo sapiens, UniProt Q9NYY3)",,inhibitor,,concentration not given,,< 50%
CC(C)[C@H]1NC(=O)C[C@H]2/C=C/CCSSC[C@@H](NC1=O)C(=O)N[C@H](Cc1cccc3ccccc13)C(=O)NCC(=O)O2,"Serine/threonine-protein kinase SIK2 (SIK2, Homo sapiens, UniProt Q9H0K1)",enzyme activity,inhibitor,,10 µM,,-4.5%
C[C@H](NCc1ccc(-c2ccc(C(F)(F)F)cc2)cc1)C(N)=O,"Bone morphogenetic protein receptor type-2 (BMPR2, Homo sapiens, UniProt Q13873)",cell-free assay,,competition with immobilised ligand,1 µM,,0%
CN(C)[C@H]1C[C@@]23CC[C@@]4(O2)C(=CC[C@]2(C)[C@@H](c5ccc6ccncc6c5)CC[C@H]24)C=C3[C@@H](O)[C@@H]1O,"Serine/threonine-protein kinase N2 (PKN2, Homo sapiens, UniProt Q16513)",ATP probe labelling,inhibitor,KiNativ profiling,0.1 µM,,-4%
CN(/N=C/c1ccccc1C(=O)O)c1nc(-c2ccccc2Cl)cs1,"Casein kinase I isoform gamma-3 (CSNK1G3, Homo sapiens, UniProt Q9Y6M4)",enzyme activity,inhibitor,,1 µM,,-29.5%
CS(C)(=O)=Nc1ccc(-c2ccc(-c3nc4cc(O[C@@H]5CO[C@H]6[C@@H]5OC[C@H]6O)[nH]c4cc3F)cc2)cc1,"Vasopressin V1b receptor (AVPR1B, Homo sapiens, UniProt P47901)",ligand displacement,,radioligand,10 µM,,7%
COc1ccc(F)cc1S(=O)(=O)Nc1cnc2c(c1)C(=O)NCCO2,"Melanocortin receptor 4 (MC4R, Homo sapiens, UniProt P32245)",ligand displacement,,radioligand,10 µM,,1%
N[C@H](C(=O)N1CCCC1)C1CCN(c2nccc3c(-c4ncc(Cl)cc4Cl)cccc23)CC1,"Protein-arginine deiminase type-4 (PADI4, Homo sapiens, UniProt Q9UM07)",enzyme activity,inhibitor,,9.6 µM,Ca2+ 0.25 mM,104%

# For quick reference, copied from above:
Structure (SMILES),target,read-out,action,technique,tested at,with,inhibition
O=C(CN1CN(c2ccccc2)C2(CCN(C(=O)c3cnc4[nH]ncc4c3)CC2)C1=O)NCC(F)(F)F,"Serine/threonine-protein kinase PLK2 (PLK2, Homo sapiens, UniProt Q9NYY3)",,inhibitor,,concentration not given,,< 50%
